Published values pooled from the literature.
Compare with care: the assays were run in different laboratories. Values joined by “and” are separate records of one study, mostly repeats; a detail may differ. ± gives the spread as reported.
CYP3A4: Cytochrome P450 3A4 (CYP3A4, Homo sapiens, UniProt P08684)
Sequence of UniProt P08684 (whole entry, looked up): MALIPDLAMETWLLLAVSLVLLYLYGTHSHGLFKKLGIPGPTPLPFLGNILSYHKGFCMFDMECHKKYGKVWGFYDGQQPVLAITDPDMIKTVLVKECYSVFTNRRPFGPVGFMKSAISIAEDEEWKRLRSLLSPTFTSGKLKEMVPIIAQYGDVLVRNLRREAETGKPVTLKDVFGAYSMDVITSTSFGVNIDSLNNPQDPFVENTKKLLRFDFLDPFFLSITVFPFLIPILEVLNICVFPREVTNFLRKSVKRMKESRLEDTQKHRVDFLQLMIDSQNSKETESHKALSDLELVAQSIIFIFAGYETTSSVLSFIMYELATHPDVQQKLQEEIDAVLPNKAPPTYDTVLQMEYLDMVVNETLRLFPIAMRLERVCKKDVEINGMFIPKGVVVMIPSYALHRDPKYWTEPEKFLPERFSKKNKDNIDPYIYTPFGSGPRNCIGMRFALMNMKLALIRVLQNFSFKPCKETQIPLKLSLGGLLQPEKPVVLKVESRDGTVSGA
HLA class I histocompatibility antigen, A alpha chain allele A*02:01: HLA class I histocompatibility antigen, A alpha chain, allele A*02:01 (Homo sapiens, UniProt P04439)
Sequence of UniProt P35372 (whole entry, looked up): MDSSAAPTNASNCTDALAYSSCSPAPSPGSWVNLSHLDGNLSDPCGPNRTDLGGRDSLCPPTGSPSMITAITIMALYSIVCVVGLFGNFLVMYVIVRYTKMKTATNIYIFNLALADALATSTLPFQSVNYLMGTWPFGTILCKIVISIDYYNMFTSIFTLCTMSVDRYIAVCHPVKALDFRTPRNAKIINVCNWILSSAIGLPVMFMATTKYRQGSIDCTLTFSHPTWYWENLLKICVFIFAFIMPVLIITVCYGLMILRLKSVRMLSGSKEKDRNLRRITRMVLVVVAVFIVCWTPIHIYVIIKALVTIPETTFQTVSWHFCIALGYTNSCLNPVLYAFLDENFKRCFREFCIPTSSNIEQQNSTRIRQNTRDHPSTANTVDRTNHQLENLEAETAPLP
Sequence of UniProt P63096 (whole entry, looked up): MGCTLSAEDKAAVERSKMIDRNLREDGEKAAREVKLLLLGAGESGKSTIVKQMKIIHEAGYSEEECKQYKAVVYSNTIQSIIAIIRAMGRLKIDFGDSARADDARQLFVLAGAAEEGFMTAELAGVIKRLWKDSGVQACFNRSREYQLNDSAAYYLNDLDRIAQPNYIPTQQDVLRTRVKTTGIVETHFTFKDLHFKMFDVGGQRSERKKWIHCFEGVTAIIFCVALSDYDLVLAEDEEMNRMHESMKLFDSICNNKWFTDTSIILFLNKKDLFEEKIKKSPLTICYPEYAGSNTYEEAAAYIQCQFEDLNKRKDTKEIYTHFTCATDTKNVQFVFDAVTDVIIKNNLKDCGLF
Sequence of UniProt P41595 (whole entry, looked up): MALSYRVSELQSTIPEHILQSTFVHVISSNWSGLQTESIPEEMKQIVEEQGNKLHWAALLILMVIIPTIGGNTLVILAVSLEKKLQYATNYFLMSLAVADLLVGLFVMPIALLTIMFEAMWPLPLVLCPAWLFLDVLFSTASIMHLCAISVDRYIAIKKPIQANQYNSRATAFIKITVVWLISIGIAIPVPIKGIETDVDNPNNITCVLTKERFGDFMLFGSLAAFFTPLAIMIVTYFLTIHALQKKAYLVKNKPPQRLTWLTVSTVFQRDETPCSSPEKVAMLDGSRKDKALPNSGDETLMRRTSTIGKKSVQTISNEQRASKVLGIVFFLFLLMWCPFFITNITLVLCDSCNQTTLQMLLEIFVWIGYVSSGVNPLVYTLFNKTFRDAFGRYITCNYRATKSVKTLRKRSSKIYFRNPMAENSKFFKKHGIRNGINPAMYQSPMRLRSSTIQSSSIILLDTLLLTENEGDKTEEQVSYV
Sequence of UniProt P42866 (whole entry, looked up): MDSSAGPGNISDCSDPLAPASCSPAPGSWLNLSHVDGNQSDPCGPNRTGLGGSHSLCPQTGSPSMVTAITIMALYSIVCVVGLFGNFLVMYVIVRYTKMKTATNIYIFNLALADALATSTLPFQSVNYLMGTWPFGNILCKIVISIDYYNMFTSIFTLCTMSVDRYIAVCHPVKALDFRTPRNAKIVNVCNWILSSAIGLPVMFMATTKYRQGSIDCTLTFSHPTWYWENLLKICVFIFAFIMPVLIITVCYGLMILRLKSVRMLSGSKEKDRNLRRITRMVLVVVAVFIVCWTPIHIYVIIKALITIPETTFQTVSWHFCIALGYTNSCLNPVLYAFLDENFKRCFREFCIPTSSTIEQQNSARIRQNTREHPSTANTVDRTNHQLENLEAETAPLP
Sequence of UniProt P51452 (whole entry, looked up): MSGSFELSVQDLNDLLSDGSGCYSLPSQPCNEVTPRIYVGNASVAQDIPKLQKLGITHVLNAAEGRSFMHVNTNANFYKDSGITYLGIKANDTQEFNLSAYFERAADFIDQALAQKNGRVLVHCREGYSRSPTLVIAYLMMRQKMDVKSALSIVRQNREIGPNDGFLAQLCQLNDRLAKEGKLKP
Sequence of UniProt Q9P0L9 (whole entry, unmodified, looked up): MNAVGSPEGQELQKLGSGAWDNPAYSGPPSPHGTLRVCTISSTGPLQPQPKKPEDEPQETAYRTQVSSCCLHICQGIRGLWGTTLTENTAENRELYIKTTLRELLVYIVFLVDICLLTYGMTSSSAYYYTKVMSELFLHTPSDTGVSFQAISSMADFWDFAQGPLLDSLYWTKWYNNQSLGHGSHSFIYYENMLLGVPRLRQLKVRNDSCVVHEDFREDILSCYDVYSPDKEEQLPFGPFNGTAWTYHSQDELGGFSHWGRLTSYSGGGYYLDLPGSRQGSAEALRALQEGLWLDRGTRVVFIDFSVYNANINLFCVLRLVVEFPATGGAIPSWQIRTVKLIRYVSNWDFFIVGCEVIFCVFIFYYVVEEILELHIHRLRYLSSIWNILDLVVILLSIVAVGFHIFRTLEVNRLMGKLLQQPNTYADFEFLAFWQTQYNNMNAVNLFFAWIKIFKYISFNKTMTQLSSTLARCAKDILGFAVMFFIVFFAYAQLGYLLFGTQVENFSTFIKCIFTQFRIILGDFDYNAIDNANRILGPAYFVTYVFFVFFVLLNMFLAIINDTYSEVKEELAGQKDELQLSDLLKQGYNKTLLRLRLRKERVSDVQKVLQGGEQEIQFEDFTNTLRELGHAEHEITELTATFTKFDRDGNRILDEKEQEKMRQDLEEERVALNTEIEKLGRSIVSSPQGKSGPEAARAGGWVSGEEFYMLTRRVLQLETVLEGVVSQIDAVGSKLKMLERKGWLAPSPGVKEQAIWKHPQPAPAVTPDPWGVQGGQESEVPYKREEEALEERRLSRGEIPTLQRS

| Structure (SMILES) | target | assay | system | conditions | measurement | result |
| --- | --- | --- | --- | --- | --- | --- |
| CSCC[C@H](NC(=O)[C@@H](N)CCCNC(=N)N)C(=O)N[C@@H](Cc1c[nH]c2ccccc12)C(=O)N[C@@H](CO)C(=O)N[C@@H](CCCCN)C(=O)N1CCC[C@H]1C(=O)N[C@@H](CC(C)C)C(=O)N[C@@H](CCC(N)=O)C(=O)N[C@@H](Cc1ccccc1)C(=O)O | HLA class I histocompatibility antigen, A alpha chain, allele A*24:02 (Homo sapiens, UniProt P04439) | binding | – | – | IC50 | 896 nM |
| N#Cc1ccc(Nc2nc(N)cc(Oc3c(F)cc(-c4ccc(C#N)cc4)cc3F)n2)cc1 | CYP3A4 | – | human liver microsomes | with: testosterone | IC50 | > 50000 nM |
| CSCC[C@H](NC(=O)[C@H](CCC(N)=O)NC(=O)[C@@H](N)CCCCN)C(=O)NCC(=O)N[C@@H](Cc1c[nH]cn1)C(=O)N[C@@H](CC(C)C)C(=O)N[C@@H](CC(C)C)C(=O)N[C@H](C(=O)N[C@@H](Cc1ccccc1)C(=O)O)[C@@H](C)O | HLA class I histocompatibility antigen, A alpha chain allele A*02:01 | binding | – | – | IC50 | 6850 nM |
| O=C(C1CCCCC1)N1CCN(S(=O)(=O)c2cccc3cnccc23)CC1 | CYP3A4 | enzyme activity, inhibitor | human liver microsomes | with: midazolam | IC50 | 1300 nM |
| CC[C@H](C)[C@H](NC(=O)[C@@H](N)CCSC)C(=O)N[C@@H](Cc1ccccc1)C(=O)N[C@@H](CC(=O)O)C(=O)N[C@@H](CCCCN)C(=O)N1CCC[C@H]1C(=O)N[C@H](C(=O)N[C@@H](Cc1ccc(O)cc1)C(=O)N[C@@H](Cc1ccccc1)C(=O)O)C(C)C | HLA class I histocompatibility antigen, A alpha chain allele A*02:01 | binding | – | – | IC50 | 398 nM |
| COc1cc(Nc2ncc(F)c(Nc3ccc4c(n3)NC(=O)C(C)(C)O4)n2)cc(OC)c1OC | Dual specificity protein phosphatase 3 (DUSP3, Homo sapiens, UniProt P51452) | – | – | VHR | IC50 | > 10000 nM |
| CCCNCC(O)COc1ccccc1C(=O)CCc1ccccc1 (stereo not shown) | PKD2L1 (Homo sapiens, UniProt Q9P0L9, F514A) | ion current | – | – | IC50 | 1000 nM |
| Nc1nc2c(ncn2[C@@H]2O[C@H](COP(=O)(O)OP(O)(O)=S)[C@@H](O)[C@H]2O)c(=O)[nH]1 | OPRM1/GNAI1 (Homo sapiens, UniProt P35372+P63096) | MOR-Gi coupling | HEK293F | ratio 1:4 | IC50 | 49.5 nM and 44 nM and 52.4 nM |
| CNC(C)Cc1ccc2c(c1)OCO2 (stereo not shown) | 5-hydroxytryptamine receptor 2B (HTR2B, Homo sapiens, UniProt P41595) | agonist | – | – | EC50 | 598 nM |
| C=CCN1CC[C@]23c4c5ccc(O)c4OC2C(NC(=O)c2cccc(I)c2)CC[C@@]3(O)[C@H]1C5 (stereo partly shown) | Mu-type opioid receptor (Oprm1, Mus musculus, UniProt P42866) | – | – | – | EC50 | 1.4 ± 0.3 nM |
